Published values from different studies.
Every numbered part comes from another study and shows a few of its results, in no order. Positions count from the first letter of the parent shown.
Chain of UniProt Q9Y2X8 (whole entry, looked up): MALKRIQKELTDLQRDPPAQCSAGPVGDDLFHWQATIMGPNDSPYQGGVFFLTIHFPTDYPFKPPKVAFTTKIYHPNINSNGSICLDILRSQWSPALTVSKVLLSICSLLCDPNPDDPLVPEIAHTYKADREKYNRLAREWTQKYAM

Series 1
Target: CCNE1, cyclin fold, Cln2 fusion (human)
Technique: yeast growth competition, sequencing
Medium: yeast
Setting: strong parent motif
Relative to: not given
Direction: higher = stronger binding
Quantity: normalised enrichment score
Starting sequence: viral docking peptide; KKAKRRLFTISDS
F8A: 0.405
K2A: 2.68
R5K: 0.803

Series 2
Target: Ras GTPase-activating protein-binding protein 1, full length (G3BP1, Homo sapiens, UniProt Q13283)
Chain of UniProt Q13283 (whole entry, looked up): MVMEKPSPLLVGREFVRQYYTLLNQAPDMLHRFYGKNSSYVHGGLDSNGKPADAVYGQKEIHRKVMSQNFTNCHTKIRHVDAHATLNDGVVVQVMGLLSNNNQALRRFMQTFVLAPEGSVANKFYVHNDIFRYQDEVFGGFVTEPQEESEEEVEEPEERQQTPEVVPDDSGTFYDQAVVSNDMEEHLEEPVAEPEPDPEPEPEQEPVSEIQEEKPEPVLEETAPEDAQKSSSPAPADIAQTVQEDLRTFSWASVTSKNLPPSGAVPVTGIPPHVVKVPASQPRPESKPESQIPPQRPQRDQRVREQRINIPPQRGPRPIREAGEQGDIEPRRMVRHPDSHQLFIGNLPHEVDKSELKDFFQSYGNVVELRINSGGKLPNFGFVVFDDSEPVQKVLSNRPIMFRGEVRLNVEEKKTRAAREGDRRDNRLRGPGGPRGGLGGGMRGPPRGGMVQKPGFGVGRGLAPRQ
Technique: RNA Bind-n-Seq
Molecule type: RNA
Medium: in vitro
Concentration: 200 nM
Setting: whole 134-nt RNA, ends assumed
With: 150 mM LiCl
Relative to: input library
Direction: higher = stronger binding
Quantity: log2 enrichment
Library: 7-deaza-guanosine replaces G
All sequences stand within: GGGAGUUCUACAGUCCGACGAUC … UGGAAUUCUCGGGUGUCAAGG
GCAGGAAGUAAAAACAAAUGGAAAUGCUUCGGAUAGUGGCAGGGGUGGGGGUUGCUAAGGAAAGGGUGGGAUGGGAGUAAAUAAAGAGUU: -0.121
CCUCAAGUCCUGUGCUACACAUCGUAUGUACCGAAUCGGGAAGGAAGGAAGGGAAAGUAUUAUGUUACGCCGUUCGGAUCUGCACUUCCA: -0.0287
AGUCCUGUGCUACACAUCGUAUGUACCGAAUCGGGGUGGGGAAAAAGGGGAAAGGGGAAAGUAUUAUGUUACGCCGUUCGGAUCUGCACU: 0.281
CCUGUGCUACACAUCGUAUGUACCGAAUCGGGGUUUUUGGGGAAAAAGGGGAAAAAGGGGAAAGUAUUAUGUUACGCCGUUCGGAUCUGC: 0.221
GUCCUGUGCUACACAUCGUAUGUACCGAAUCGGGGCCCCCCGGCCCCCCGGCCCCCCGGAAAGUAUUAUGUUACGCCGUUCGGAUCUGCA: -0.138
CCUGUGCUACACAUCGUAUGUACCGAAUCGGUUUUUUUGGUUUUUUUGGGGUUUUUUUGGAAAGUAUUAUGUUACGCCGUUCGGAUCUGC: 0.684
ACCAUGCAGGUGGGCAUCUUUGGGAAGUGGGGCAAGGGGGGGAUAGGGAGGGGGGUAACACUUUGGGUACAGGUGGUCCCAGGUCGUUUC: 0.0372
GUGCUACACAUCGUAUGUACCGAAUCGGGGUUUUUUUGGGGUUUUUUUGGGGUUUUUUUGGGGAAAGUAUUAUGUUACGCCGUUCGGAUC: 2.07

Series 3
Target: HLA class I histocompatibility antigen, A alpha chain, allele A*80:01 (Homo sapiens, UniProt P04439)
Effect on: peptide-MHC binding
Molecule type: peptide
Concentration: concentration not given
Quantity: binding
SYMLQGLRK: inactive
VYQRGTHPF: inactive
MNNGGDAMY: inactive
TLPGCLIIL: inactive
FLFDRLTNG: inactive
WQDGGWQSV: inactive

Other studies, line by line
BRCA1 RING domain (UniProt P38398) — lacZ reporter activity (UBE2D4 UBC core domain (UniProt Q9Y2X8); yeast two-hybrid; yeast; mostly zero background; relative to: not given, higher = stronger interaction): 0

A few entries again (series 2):
CCUGUGCUACACAUCGUAUGUACCGAAUCGGUUUUUUUGGUUUUUUUGGGGUUUUUUUGGAAAGUAUUAUGUUACGCCGUUCGGAUCUGC: 0.684
ACCAUGCAGGUGGGCAUCUUUGGGAAGUGGGGCAAGGGGGGGAUAGGGAGGGGGGUAACACUUUGGGUACAGGUGGUCCCAGGUCGUUUC: 0.0372
